Experimental data gathered from unrelated publications.
Numbered parts are unrelated; each lists some results of a single study.
Chain of UniProt O94768 (whole entry, looked up): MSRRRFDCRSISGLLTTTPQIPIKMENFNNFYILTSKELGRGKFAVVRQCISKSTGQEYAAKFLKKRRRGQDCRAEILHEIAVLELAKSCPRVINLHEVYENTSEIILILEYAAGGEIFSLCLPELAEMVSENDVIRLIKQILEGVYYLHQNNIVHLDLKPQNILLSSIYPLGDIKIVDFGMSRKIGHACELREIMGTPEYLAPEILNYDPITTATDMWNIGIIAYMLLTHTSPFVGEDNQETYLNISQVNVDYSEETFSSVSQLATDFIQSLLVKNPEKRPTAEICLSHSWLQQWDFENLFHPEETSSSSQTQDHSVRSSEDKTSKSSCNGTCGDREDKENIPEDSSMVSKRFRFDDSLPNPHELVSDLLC
Chain of UniProt P19525 (whole entry, looked up): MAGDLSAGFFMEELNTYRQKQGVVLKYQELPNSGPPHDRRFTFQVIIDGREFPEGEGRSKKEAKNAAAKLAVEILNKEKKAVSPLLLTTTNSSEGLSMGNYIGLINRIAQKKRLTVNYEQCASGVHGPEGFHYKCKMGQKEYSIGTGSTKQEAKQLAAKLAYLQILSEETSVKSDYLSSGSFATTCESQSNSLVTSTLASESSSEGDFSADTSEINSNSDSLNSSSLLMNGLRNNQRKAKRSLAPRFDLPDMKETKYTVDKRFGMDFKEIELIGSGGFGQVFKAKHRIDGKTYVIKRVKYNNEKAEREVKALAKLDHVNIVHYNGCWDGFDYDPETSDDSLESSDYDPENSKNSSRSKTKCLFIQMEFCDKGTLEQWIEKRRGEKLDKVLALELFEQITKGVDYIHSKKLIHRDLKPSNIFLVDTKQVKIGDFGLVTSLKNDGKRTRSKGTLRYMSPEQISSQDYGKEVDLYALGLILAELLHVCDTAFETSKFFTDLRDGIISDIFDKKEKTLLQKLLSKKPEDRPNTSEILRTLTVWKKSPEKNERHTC
Chain of UniProt Q13523 (whole entry, looked up): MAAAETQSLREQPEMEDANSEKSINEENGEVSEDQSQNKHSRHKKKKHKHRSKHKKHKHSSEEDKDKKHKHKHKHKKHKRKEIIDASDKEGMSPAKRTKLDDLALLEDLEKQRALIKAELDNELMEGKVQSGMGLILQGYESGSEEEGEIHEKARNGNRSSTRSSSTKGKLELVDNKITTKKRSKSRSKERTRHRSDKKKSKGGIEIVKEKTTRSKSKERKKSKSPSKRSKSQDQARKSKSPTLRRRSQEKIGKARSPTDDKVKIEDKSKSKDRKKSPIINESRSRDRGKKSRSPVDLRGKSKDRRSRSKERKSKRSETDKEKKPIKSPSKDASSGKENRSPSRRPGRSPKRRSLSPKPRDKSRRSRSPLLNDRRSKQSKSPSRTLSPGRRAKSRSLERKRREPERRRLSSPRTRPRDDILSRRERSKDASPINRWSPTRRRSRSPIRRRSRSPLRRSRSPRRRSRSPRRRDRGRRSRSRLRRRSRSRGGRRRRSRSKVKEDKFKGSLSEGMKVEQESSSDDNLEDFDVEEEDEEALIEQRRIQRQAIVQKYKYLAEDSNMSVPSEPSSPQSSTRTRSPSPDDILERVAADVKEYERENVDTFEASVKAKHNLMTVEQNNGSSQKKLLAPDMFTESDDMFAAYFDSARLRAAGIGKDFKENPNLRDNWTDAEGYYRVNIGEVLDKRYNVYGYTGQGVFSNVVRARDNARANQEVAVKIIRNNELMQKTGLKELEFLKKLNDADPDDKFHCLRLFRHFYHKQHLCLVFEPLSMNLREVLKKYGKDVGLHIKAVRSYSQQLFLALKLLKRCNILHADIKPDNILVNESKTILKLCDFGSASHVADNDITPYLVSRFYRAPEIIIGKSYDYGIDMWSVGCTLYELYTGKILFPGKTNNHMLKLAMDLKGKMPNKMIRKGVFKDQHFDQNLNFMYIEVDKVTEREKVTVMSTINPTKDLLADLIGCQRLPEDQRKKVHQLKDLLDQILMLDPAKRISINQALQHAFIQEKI
Chain of UniProt Q52WX2 (whole entry, looked up): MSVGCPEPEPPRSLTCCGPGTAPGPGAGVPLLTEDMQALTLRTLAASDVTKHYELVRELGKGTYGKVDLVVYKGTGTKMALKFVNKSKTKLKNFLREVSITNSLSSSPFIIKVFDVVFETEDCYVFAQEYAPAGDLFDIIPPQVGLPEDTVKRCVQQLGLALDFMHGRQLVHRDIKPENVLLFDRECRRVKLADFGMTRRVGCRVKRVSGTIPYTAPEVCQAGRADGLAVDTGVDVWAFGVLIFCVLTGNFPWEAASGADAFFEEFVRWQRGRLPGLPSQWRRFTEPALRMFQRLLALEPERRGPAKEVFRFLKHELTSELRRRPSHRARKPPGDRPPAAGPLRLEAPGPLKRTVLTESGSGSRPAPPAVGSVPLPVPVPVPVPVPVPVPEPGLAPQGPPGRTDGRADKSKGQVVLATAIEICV
Chain of UniProt P57059 (whole entry, looked up): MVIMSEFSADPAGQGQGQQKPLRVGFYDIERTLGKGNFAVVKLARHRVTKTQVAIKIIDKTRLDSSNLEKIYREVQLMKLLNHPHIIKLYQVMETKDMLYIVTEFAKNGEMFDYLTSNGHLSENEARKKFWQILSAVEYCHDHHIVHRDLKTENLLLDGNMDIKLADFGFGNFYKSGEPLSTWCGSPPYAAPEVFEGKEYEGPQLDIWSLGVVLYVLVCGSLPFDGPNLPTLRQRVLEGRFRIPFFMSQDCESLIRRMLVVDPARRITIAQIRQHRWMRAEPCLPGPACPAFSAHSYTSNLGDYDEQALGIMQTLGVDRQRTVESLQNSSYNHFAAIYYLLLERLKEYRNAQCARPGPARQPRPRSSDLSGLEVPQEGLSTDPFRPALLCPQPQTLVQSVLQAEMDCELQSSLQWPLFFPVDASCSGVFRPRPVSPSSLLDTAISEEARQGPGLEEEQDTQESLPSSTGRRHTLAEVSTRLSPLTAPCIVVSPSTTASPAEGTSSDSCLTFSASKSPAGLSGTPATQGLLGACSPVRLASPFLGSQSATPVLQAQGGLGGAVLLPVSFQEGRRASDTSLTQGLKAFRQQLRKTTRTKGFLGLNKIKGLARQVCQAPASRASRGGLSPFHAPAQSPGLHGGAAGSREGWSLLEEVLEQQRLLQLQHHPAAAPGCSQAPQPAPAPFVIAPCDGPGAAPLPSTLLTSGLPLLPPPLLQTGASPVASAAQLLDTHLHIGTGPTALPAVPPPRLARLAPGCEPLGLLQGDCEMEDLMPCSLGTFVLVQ

Set 1 — effect on: enzyme activity; action: inhibitor; tested at: 0.5 µM; relative to: control; measurement: remaining activity
Target: Serine/threonine-protein kinase D3 (PRKD3, Homo sapiens, UniProt O94806)
Chain of UniProt O94806 (whole entry, looked up): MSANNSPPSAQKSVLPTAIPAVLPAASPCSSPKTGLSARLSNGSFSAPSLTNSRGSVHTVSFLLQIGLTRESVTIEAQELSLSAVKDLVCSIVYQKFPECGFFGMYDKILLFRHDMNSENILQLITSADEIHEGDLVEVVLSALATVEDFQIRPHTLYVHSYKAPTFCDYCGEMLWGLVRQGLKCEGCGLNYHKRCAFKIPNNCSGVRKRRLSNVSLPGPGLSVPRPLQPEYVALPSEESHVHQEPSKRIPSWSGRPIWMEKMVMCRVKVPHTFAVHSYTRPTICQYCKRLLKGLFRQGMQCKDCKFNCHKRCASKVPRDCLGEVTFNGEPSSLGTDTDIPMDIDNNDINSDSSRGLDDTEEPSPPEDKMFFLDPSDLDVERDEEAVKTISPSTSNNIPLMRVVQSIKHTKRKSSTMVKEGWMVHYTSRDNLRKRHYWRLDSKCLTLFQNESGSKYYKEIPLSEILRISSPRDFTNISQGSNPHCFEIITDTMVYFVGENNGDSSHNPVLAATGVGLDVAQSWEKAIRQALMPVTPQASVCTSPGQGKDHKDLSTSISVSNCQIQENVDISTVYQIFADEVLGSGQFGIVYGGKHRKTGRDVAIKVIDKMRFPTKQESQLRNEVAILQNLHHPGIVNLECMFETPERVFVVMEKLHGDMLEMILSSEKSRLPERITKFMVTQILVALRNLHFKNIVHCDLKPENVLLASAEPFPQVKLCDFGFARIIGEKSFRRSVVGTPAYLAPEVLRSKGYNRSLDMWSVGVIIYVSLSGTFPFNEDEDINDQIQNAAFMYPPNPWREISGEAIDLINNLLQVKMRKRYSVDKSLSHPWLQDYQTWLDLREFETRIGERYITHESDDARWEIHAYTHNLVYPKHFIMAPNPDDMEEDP
Nc1ccc2ncnc(NCCc3ccc(Oc4ccccc4)cc3)c2c1: 98.1%
CCOC(=O)c1c(C)[nH]c(/C=C2\C(=O)Nc3ccccc32)c1C: 90.1%
OCC(O)CCON=C1C(c2c(O)[nH]c3ccccc23)=Nc2ccccc21 (stereo not shown): 68.1%
O=S(=O)(c1cccc2cnccc12)N1CCCNCC1: 65.8%
C#Cc1cccc(Nc2ncnc3cc(OCCOC)c(OCCOC)cc23)c1: 86.5%
COc1ccc(OC)c2c(=S)c3ccccc3[nH]c12: 94.1%
CC(C)[C@H](CO)Nc1nc(Nc2cc(N)cc(Cl)c2)c2ncn(C(C)C)c2n1: 89.2%
Cc1ccc(NC(=O)c2ccc(CN3CCN(C)CC3)cc2)cc1Nc1nc(-c2cccnc2)cs1: 92.7%
Oc1ccc(-c2nc(-c3ccncc3)c(-c3ccc(F)cc3)[nH]2)cc1: 69.8%
N#CC(C#N)=C(N)/C(C#N)=C/c1ccc(O)cc1: 91.9%
Cn1sc(=O)n(Cc2ccccc2)c1=O: 95.9%
CN(C)c1ccc(C=C2C(=O)Nc3ccccc32)cc1: 99.2%
O=C(O)c1ccc2c3c1cccc3c(=O)n1c3ccccc3nc21: 82.2%
Cc1cccc(-c2[nH]c(C(C)(C)C)nc2-c2ccc3c(c2)OCO3)n1: 89.3%
Cn1c2ccccc2c2c3c(c4c5ccccc5n(CCC#N)c4c21)CNC3=O: 7.3%

Set 2 — technique: protein binding microarray; molecule type: double-stranded DNA, one strand shown; medium: in vitro; tested at: not given; relative to: not given; reading: higher = stronger binding; measurement: E-score
Target: Histone acetyltransferase KAT6A, both winged helices, GST fusion (KAT6A, Homo sapiens, UniProt Q92794, residues 1-181)
Setting: 8-mer, flanks averaged, mean of 2 arrays, mostly near background
Residues (chain): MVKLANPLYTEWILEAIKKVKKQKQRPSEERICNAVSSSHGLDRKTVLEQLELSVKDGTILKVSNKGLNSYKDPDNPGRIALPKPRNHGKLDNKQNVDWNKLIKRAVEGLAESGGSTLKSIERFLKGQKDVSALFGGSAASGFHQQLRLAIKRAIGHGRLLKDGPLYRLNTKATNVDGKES
ACGTGTAC: -0.112
ATTGCCCC: -0.171
ATACCGAT: 0.0381
AACAATAC: -0.0215
ACCATACC: -0.0689
CGCACCGA: 0.0952
CCCAGAAA: -0.201
ACTATAAC: -0.065

Set 3 — technique: protein-binding microarray; molecule type: hairpin DNA; medium: in vitro; tested at: not given; relative to: not given; reading: higher = stronger binding; measurement: median fluorescence; all sequences stand within: GAGGCCGTT … AACGGCCTCACACTC
Target: Homeobox protein Hox-B13, full length (HOXB13, Homo sapiens, UniProt Q92826, residues 1-284)
Chain of UniProt Q92826 (whole entry, looked up): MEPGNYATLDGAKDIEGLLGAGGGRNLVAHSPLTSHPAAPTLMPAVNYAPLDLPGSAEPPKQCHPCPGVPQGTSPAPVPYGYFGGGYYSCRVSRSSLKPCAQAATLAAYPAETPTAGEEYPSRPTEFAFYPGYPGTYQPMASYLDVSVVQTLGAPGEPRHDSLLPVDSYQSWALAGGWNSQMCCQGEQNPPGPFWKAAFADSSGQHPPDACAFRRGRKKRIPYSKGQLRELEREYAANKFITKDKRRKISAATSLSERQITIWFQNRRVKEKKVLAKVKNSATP
Setting: whole hairpin DNA, median over replicate spots
TAACGAGGGCCTCCTGGCCCTCGTTA: 4960 a.u.
CGACGAGGGCCTCCTGGCCCTCGTCG (5mC at 10): 3970 a.u.
TTCGGAGGGCCTCCTGGCCCTCCGAA: 3790 a.u.
TCACGAGGGCCTCCTGGCCCTCGTGA: 4380 a.u.
TTCCGAGGGCCTCCTGGCCCTCGGAA (5mC at 12): 3820 a.u.
TTACGAAGGCCTCCTGGCCTTCGTAA: 4320 a.u.
TTATTGGCGCCTCCTGGCGCCAATAA (5mC at 17): 5280 a.u.
CTATTGGGGCCTCCTGGCCCCAATAG: 4140 a.u.

Set 4 — tested at: 1 µM; measurement: remaining binding
Compound: CCS(=O)(=O)c1cc2cc(C[C@@](O)(CC(C)(C)c3ccc(F)cc3C(N)=O)C(F)(F)F)[nH]c2cn1
Serine/threonine-protein kinase SBK1 (SBK1, Homo sapiens, UniProt Q52WX2); cell-free assay, competition with immobilised ligand: 94%
Interferon-induced, double-stranded RNA-activated protein kinase (EIF2AK2, Homo sapiens, UniProt P19525); cell-free assay, competition with immobilised ligand: 61%
Serine/threonine-protein kinase D3 (PRKD3, Homo sapiens, UniProt O94806); cell-free assay, competition with immobilised ligand: 100%
Serine/threonine-protein kinase SIK1 (SIK1, Homo sapiens, UniProt P57059); competition binding: 100%
Mitogen-activated protein kinase 1 (MAPK1, Homo sapiens, UniProt P28482); cell-free assay, competition with immobilised ligand: 94%
Serine/threonine-protein kinase 17B (STK17B, Homo sapiens, UniProt O94768); cell-free assay, competition with immobilised ligand: 76%
Serine/threonine-protein kinase mTOR (MTOR, Homo sapiens, UniProt P42345); cell-free assay, competition with immobilised ligand: 100%
Serine/threonine-protein kinase PRP4 homolog (PRPF4B, Homo sapiens, UniProt Q13523); cell-free assay, competition with immobilised ligand: 80%
Epidermal growth factor receptor (EGFR, Homo sapiens, UniProt P00533, L858R); cell-free assay, competition with immobilised ligand: 90%

Some of these lines once more (set 1):
C#Cc1cccc(Nc2ncnc3cc(OCCOC)c(OCCOC)cc23)c1: 86.5%
COc1ccc(OC)c2c(=S)c3ccccc3[nH]c12: 94.1%
CC(C)[C@H](CO)Nc1nc(Nc2cc(N)cc(Cl)c2)c2ncn(C(C)C)c2n1: 89.2%
Cc1ccc(NC(=O)c2ccc(CN3CCN(C)CC3)cc2)cc1Nc1nc(-c2cccnc2)cs1: 92.7%
